Experimental data gathered from unrelated publications.
± marks the error that the study gave.

Compound | target or system | test | test system | conditions | how to read | measurement | value
O=C(O)C(O)c1ccccc1 (racemic) | THP-1 | pyroptotic LDH release |  | 2 µM, 40 min, together with: LPS then nigericin |  | inhibition | 13.9%
CCO[C@H]1CCN(Cc2c(OC)cc(C)c3[nH]ccc23)[C@H](c2ccc(C(=O)O)cc2)C1 |  |  | human mild hepatic impairment, plasma | oral, 200 mg single dose, mean |  | total Cmax | 3750 ng/mL
CCCC[C@H]1CC[C@H](c2ccc(C#N)cc2)CC1 |  |  | Sprague-Dawley rat, female, fetus | 1000 ng/mL in perfusate, 50 (unit not given), middle dose, mixture of 21 LCMs |  | fetal accumulation | 0.084 ± 0.098 ng/g
CCc1cc(C(=O)NC)c2nccc(N3CCc4c(cc(Cn5ccnc5)cc4-c4cn(C)nc4C(F)(F)F)C3=O)c2c1 |  |  | Sprague Dawley rat, male, plasma | oral, 100 mg/kg twice daily, 7 days |  | t1/2 | 1.3 h
CCCCC[C@H](O)CC[C@@H]1[C@H]2Cc3cccc(OCC(=O)O)c3C[C@H]2C[C@H]1O |  | LC-MS/MS | Japanese PAH patients aged ≥sample A years, plasma | inhaled, 54 µg |  | geometric mean half-life | 0.79 h
COc1cc2c3c(n(CCCN4CCOCC4)c(=O)c2cc1OC)-c1cc2c(cc1C3=O)OCO2 |  |  | beagle dog, female, plasma | intravenous infusion, 50 mg/m^2, 1 h infusion, vehicle 1 |  | Vz | 401 ± 199 L/m²
CC[C@H](C)[C@H](NC(C)=O)C(=O)N[C@H]1CSSC[C@@H](C(=O)N[C@H](C(N)=O)[C@@H](C)O)NC(=O)[C@H](CCCNC(=N)N)NC(=O)[C@H](Cc2c[nH]cn2)NC(=O)[C@H](C)NC(=O)CNC(=O)[C@H](Cc2c[nH]c3ccccc23)NC(=O)[C@H](CC(=O)O)NC(=O)[C@H](CCC(N)=O)NC(=O)[C@H](Cc2cn(C)c3ccccc23)NC(=O)[C@H](C(C)C)NC1=O |  | RP-HPLC, C18 | 28% acetonitrile isocratic | pH 7.4 |  | retention factor | 5.901 ± 0.006
O=Cc1ccccc1C(=O)O | THP-1 | pyroptotic LDH release |  | 2 µM, 40 min, together with: LPS then nigericin |  | inhibition | 5.16%
CNCc1ccc(-c2[nH]c3cc(F)cc4c3c2CCNC4=O)cc1 |  |  | human patients | oral, 40 mg once daily, grade 500 or higher |  | incidence of AST/ALT increase | 7.7%
COc1cc(N2CCC(N3CCN(C)CC3)CC2)ccc1Nc1ncc(Cl)c(Nc2ccccc2P(C)(C)=O)n1 |  |  | healthy subjects, plasma | ex vivo, mean |  | bound fraction | 0.0883
CC(C)(C)c1ccc(O)c(CN(Cc2cc(C(C)(C)C)ccc2O)C2CCC(NC(N)=O)CC2)c1 (stereo not shown) |  |  | human liver microsomes | 2000 ng/mL, 3 months, -20 °C, long-term storage |  | recovery | 101.9 ± 0.19%
CCn1c(=O)c(-c2cc(NC(=O)Nc3ccccc3)c(F)cc2Br)cc2cnc(NC)cc21 |  | item: lipase increased | human, severe hepatic impairment | oral, 50 mg single dose |  | participants with drug-related TEAE | 100%
C=CC(=O)Nc1cc(Nc2nccc(-c3cn(C)c4ccccc34)n2)c(OC)cc1N(C)CCN(C)C |  | storage stability | human dried blood spot | 10 d, on ice, MQC level |  | recovery | 73.1%
Cc1ccc([C@@H]2O[C@H](CO)[C@@H](O)[C@H](O)[C@H]2O)cc1Cc1ccc(-c2ccc(F)cc2)s1 |  |  | human, maintenance hemodialysis patients | oral, 300 mg once daily, steady state, median |  | trough concentration | 250 µg/L
O=C(O)CCC(=O)O.[2H]C([2H])([2H])Oc1cc(C)c2[nH]ccc2c1CN1CC[C@@H](C2CC2)C[C@H]1c1ccc(C(=O)O)cc1 |  | multiple ascending dose | healthy Chinese subjects | 300 mg once daily |  | subjects with elevated ALT TEAE | 0%
O=C1NCCc2nc(OCc3cccc(F)c3)ccc21 |  | item: Miosis | Sprague-Dawley rat male | oral, 100 mg/kg, 0 min | baseline: baseline, direction not given | Irwin test score | 0
CCCOc1ccc([C@H]2CNC(=O)N2c2ccc3[nH]cnc3c2)cc1 |  |  | human volunteers fasted, plasma | oral tablet, 200 mg single dose, crossover, geometric mean |  | AUC(0-12h) | 2240 ng·h/mL
CCN1/C(=C/C(C)=O)Sc2ccc(F)cc21 |  |  | cynomolgus monkey | oral, 100 mg/kg, 1 h post-dose | baseline: pre-dose | diastolic blood pressure change | 97.1 ± 3.1%
CC(C)[C@H](NC(=O)[C@H](Cc1ccccc1)NC(=O)[C@H](CCCCN)NC(=O)[C@H](CCCCN)NC(=O)[C@H](C)NC(=O)[C@H](CO)NC(=O)[C@H](CCCCN)NC(=O)[C@]1(C)CCCC=CCCC[C@](C)(NC(=O)CN)C(=O)N[C@@H](CCCCN)C(=O)N[C@@H](CCCCN)C(=O)N[C@@H](Cc2ccccc2)C(=O)N1)C(=O)N[C@@H](CCCCN)C(=O)N[C@@H](C)C(=O)N[C@@H](Cc1ccccc1)C(=O)N[C@@H](CCCCN)C(N)=O |  | UPLC | TFA water/acetonitrile gradient |  | longer = more hydrophobic | retention time | 2.12 min

Some of these lines once more:
Compound | target or system | test | test system | conditions | how to read | measurement | value
O=Cc1ccccc1C(=O)O | THP-1 | pyroptotic LDH release |  | 2 µM, 40 min, together with: LPS then nigericin |  | inhibition | 5.16%
CCCOc1ccc([C@H]2CNC(=O)N2c2ccc3[nH]cnc3c2)cc1 |  |  | human volunteers fasted, plasma | oral tablet, 200 mg single dose, crossover, geometric mean |  | AUC(0-12h) | 2240 ng·h/mL
